Results collected from several papers.
Each numbered part is a random draw from the data of one study; scales do not carry over between parts.

Study 1
Target: Sal-like protein 4, full length isoform B (SALL4, Homo sapiens, UniProt Q9UJQ4-2, residues 1-616)
Method: universal PBM
Form: double-stranded DNA, one strand shown
Medium: in vitro
Tested at: not given
Notes: 8-mer, flanks averaged, mean of replicates
Reading: higher = stronger binding
Quantity: E-score
Sequence = ATCTTAGA; result = 0.0293
Sequence = AGCCTGCG; result = -0.26
Sequence = GAGTTAAC; result = 0.0898
Sequence = GGCCACCA; result = -0.17
Sequence = CCAGCAAC; result = -0.126
Sequence = ACCAAAGC; result = -0.206
Sequence = CGTTATAC; result = 0.115
Sequence = AGTGGAGC; result = -0.0726
Sequence = GTCGGCCA; result = -0.208
Sequence = CAATCCGC; result = -0.0432
Sequence = AGTCGTTC; result = -0.0832
Sequence = ACACGTCC; result = -0.0517
Sequence = AGATTCTA; result = 0.144
Sequence = CTTTTTAC; result = 0.111
Sequence = GATTACAA; result = 0.213
Sequence = AACATACT; result = 0.214
Sequence = GGATATCC; result = 0.118
Sequence = GCGAGCGC; result = -0.264
Sequence = ATCGGCAA; result = -0.0597
Sequence = CATGCAAG; result = 0.0386
Sequence = ATTCTCAG; result = 0.12
Sequence = AAGCCACC; result = -0.101
Sequence = ATAAGACC; result = 0.171
Sequence = GACAACCC; result = -0.269
Sequence = TCCACGAA; result = 0.135

Study 2
Target: Interferon regulatory factor 3, full length, phosphomimetic (IRF3, Homo sapiens, UniProt Q14653, residues 1-427, S386D/S396D/S398D/S402D/T404D/S405D)
Method: protein-binding microarray
Form: double-stranded DNA, one strand shown
Medium: in vitro
Tested at: 2540 nM top
Notes: 60-bp whole probe
Together with: salmon DNA 0.4 mg/ml
Reference: random background probes
Reading: higher = stronger binding
Quantity: fitted relative affinity
Constant ends, left off below: GCCTAGCAC … GTCTTGATTCGCTTGACGCTGCTG
Construct (chain): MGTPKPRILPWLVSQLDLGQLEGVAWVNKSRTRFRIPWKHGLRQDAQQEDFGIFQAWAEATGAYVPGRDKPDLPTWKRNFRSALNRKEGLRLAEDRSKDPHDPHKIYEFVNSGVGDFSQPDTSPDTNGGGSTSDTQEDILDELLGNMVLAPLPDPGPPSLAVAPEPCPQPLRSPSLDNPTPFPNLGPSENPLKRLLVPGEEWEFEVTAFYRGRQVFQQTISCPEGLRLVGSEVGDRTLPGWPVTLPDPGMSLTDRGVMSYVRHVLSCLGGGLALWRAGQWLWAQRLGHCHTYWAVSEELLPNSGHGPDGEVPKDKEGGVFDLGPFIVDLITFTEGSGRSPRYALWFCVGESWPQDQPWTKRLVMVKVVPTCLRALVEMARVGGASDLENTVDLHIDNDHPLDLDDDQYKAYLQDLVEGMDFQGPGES
Sequence = TTAGGTTTCGCCTATCGGTTAGTGCTA; result = 2.34 z-score
Sequence = CTAATTTTCAATTCCTGAAAGTGCTAG; result = 2.19 z-score
Sequence = GACGATCTCGGTATCGGGACGTGCTAG; result = 1.33 z-score
Sequence = GACGGTCTCCTACTTCTGACGTGCTAG; result = 2 z-score
Sequence = TTAGGAATGCTTCTCCTTTAGTGCTAG; result = 0.13 z-score
Sequence = TGGTCTCTAGTTAGAGAACTGTGCTAG; result = 0.196 z-score
Sequence = GACGGTTTCCTTATCCGGACGTGCTAG; result = 8.67 z-score
Sequence = TTAGACATCGGGACTGGATTAGTGCTA; result = -0.661 z-score
Sequence = TCACATCTCCAAAGTCAGACTGTGCTA; result = 1.19 z-score
Sequence = TTACATCTCAGTATCGATTAGTGCTAG; result = 1.34 z-score
Sequence = TCATCCCTTTCTCTCTGACTGTGCTAG; result = 3.46 z-score
Sequence = TCATCTAACCTCTCTAATACTGTGCTA; result = 0.6 z-score
Sequence = TCAGATTTTTTTTCCTAACTGTGCTAG; result = 1.72 z-score
Sequence = TTTTTTTTTTTTTTTTTGGAGTGCTAG; result = 1.56 z-score
Sequence = CTCCTGCAGCTGCCCTCCTGGTGCTAG; result = -0.214 z-score
Sequence = TCAGGACTGGGTTTCGGTTAGTGCTAG; result = 3.01 z-score
Sequence = CTTTGCCTCATCTTGCAGGTAGTGCTA; result = 1.14 z-score
Sequence = TAGTTTTACTTTCTATGTCTGTGCTAG; result = 5.31 z-score
Sequence = TAACTTTCCAATTGTCCTTTCGTGCTA; result = 5.3 z-score
Sequence = TAAGGACTGGGTATCGGTTAGTGCTAG; result = 0.449 z-score
Sequence = TCCCCTTCTACTCTCCTGCAGTGCTAG; result = 2.44 z-score
Sequence = TTAGGTTTCCTTTTCCTTTTGTGCTAG; result = 12.4 z-score

Study 3
Target: Centromere-binding protein 1, full length, His-tagged (CBF1, Saccharomyces cerevisiae, UniProt P17106, residues 1-351)
Chain of UniProt P17106 (whole entry, looked up): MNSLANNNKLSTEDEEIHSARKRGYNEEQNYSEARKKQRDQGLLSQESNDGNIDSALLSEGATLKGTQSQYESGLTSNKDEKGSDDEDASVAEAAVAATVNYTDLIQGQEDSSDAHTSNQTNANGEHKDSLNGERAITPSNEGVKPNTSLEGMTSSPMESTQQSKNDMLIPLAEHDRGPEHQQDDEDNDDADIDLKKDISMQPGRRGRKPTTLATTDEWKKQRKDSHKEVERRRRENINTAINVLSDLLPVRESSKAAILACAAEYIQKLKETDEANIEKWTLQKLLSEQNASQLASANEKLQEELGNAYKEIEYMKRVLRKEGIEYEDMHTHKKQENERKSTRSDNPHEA
Method: competition protein-binding microarray
Form: double-stranded DNA, one strand shown
Medium: in vitro
Tested at: 2 µM
Notes: whole 60-bp probe, lowest competitor level
Together with: Pho4 competitor, 0.05 µM
Reading: higher = stronger binding
Quantity: fluorescence intensity
Constant ends, left off below: … GTCTTGATTCGCTTGACGCTGCTG
Sequence = GATGTTCTTTTTCGCCACATGCTTCATGACGATTTA; result = 135 a.u.
Sequence = CTTTCCCGATCTTGGCACGTGGGTGTAGCACATTTG; result = 1250 a.u.
Sequence = CCTGCAGCTGGCTCATTCGTGCTTTACTCTCTTTCC; result = 76 a.u.
Sequence = AGCCAGAAAATATACCATGTGTGAAAATAGCGATAA; result = 113 a.u.
Sequence = TTTGTTCCTTGGAACCACATGATTTACTCAACAAAT; result = 282 a.u.
Sequence = TGCGCAACAACTTGCAACGTGGGTGTATGTCTAGAA; result = 83.2 a.u.
Sequence = AAATTACTAAGTTTCCACGTGTTTTACCCCGTATGA; result = 771 a.u.
Sequence = CCATGGATGAAGTGTATTATAAATTTGGGTTAGGCA; result = 72.5 a.u.
Sequence = CTTTCCCGATCTTGGAGGGTGGGTGTAGCACATTTG; result = 69 a.u.
Sequence = CGGGGTTAAGTTTGCCGAGTGGGTGGCTTGCAGCAG; result = 76.9 a.u.
Sequence = CTAACGAAGGTTTTTCACGTGAGCTACAAGCCAAGT; result = 1150 a.u.
Sequence = TTCACAAAATTGCCACTCGTGGTGATATGCTATGGA; result = 97.7 a.u.
Sequence = GCATATGCCTTCTGGCACGTGTCCATCTGCATACTA; result = 2500 a.u.
Sequence = CATACCCAACCTTGAGGGGTGGGTGAAGATATTTGT; result = 68.2 a.u.
Sequence = CAAACGGCATTCCGTCACGTACGATAACTTGATCCT; result = 106 a.u.
Sequence = AAATTACTAAGTTGTGAAGTGGGTGACGCCGTATGA; result = 71.2 a.u.
Sequence = GTAGTTCAAATCACCAGCGTGCTAACAATGTTCAAG; result = 90.7 a.u.
Sequence = TCGCGCACTACTTTTTTCGTGGGTAACTTAGGTGAA; result = 81.5 a.u.
Sequence = GTTGAATAAAGATTTCACGTGACTCGAGCTGGTCTT; result = 6570 a.u.
Sequence = AAAGCGGTAATTTGGGCGGTGGGTGCAGATATCTAT; result = 71.9 a.u.
Sequence = TGCGCAACAACTTGCTTGGTGGGTGTATGTCTAGAA; result = 68 a.u.
Sequence = CAACTGATATATATACACGTGAAGCAAAAAAGGCAT; result = 1860 a.u.
Sequence = AAAGGCACCAAGATTCACCTGACGAAAGGCTCCCCC; result = 119 a.u.
Sequence = AGGACAAGTTGTAGTCACCTGGCAAACCGAAAACGG; result = 157 a.u.
Sequence = AACGACGAATCCTGTCACATGTCTTGCTTGGTCGCA; result = 1200 a.u.

Study 4
Target: Histone acetyltransferase KAT6A, both winged helices, GST fusion (KAT6A, Homo sapiens, UniProt Q92794, residues 1-181)
Method: protein binding microarray
Form: double-stranded DNA, one strand shown
Medium: in vitro
Tested at: not given
Notes: 8-mer, flanks averaged, mean of 2 arrays, mostly near background
Reference: not given
Reading: higher = stronger binding
Quantity: E-score
Residues (chain): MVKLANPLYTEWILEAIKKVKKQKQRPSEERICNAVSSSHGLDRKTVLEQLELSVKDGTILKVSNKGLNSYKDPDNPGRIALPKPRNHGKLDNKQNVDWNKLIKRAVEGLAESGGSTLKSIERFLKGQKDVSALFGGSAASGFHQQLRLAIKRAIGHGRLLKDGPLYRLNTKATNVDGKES
Sequence = GGTGGCTA; result = -0.0977
Sequence = AACGGGGT; result = 0.17
Sequence = ACAATGAA; result = -0.141
Sequence = CATTCAAG; result = -0.0627
Sequence = CTCACCCC; result = -0.108
Sequence = ACCTTGCC; result = 0.0535
Sequence = CGCATTGA; result = 0.208
Sequence = GAGCGACA; result = 0.0379
Sequence = ATAGATAG; result = -0.0915
Sequence = TACTGGGA; result = 0.00279
Sequence = TCAAGCGA; result = 0.0589
Sequence = CGACCAGC; result = 0.0618
Sequence = GTAGGAGA; result = -0.0893
Sequence = AAGGGGGA; result = -0.214
Sequence = CCAAACTC; result = -0.18
Sequence = TCTGGGCA; result = -0.186

Excerpt of the above (study 3):
Sequence = CTTTCCCGATCTTGGCACGTGGGTGTAGCACATTTG; result = 1250 a.u.
Sequence = CCTGCAGCTGGCTCATTCGTGCTTTACTCTCTTTCC; result = 76 a.u.
Sequence = AGCCAGAAAATATACCATGTGTGAAAATAGCGATAA; result = 113 a.u.
Sequence = TTTGTTCCTTGGAACCACATGATTTACTCAACAAAT; result = 282 a.u.
Sequence = TGCGCAACAACTTGCAACGTGGGTGTATGTCTAGAA; result = 83.2 a.u.
Sequence = AAATTACTAAGTTTCCACGTGTTTTACCCCGTATGA; result = 771 a.u.
Sequence = CCATGGATGAAGTGTATTATAAATTTGGGTTAGGCA; result = 72.5 a.u.
Sequence = CTTTCCCGATCTTGGAGGGTGGGTGTAGCACATTTG; result = 69 a.u.
Sequence = CGGGGTTAAGTTTGCCGAGTGGGTGGCTTGCAGCAG; result = 76.9 a.u.
Sequence = CTAACGAAGGTTTTTCACGTGAGCTACAAGCCAAGT; result = 1150 a.u.
Sequence = TTCACAAAATTGCCACTCGTGGTGATATGCTATGGA; result = 97.7 a.u.
Sequence = GCATATGCCTTCTGGCACGTGTCCATCTGCATACTA; result = 2500 a.u.
Sequence = CATACCCAACCTTGAGGGGTGGGTGAAGATATTTGT; result = 68.2 a.u.
Sequence = CAAACGGCATTCCGTCACGTACGATAACTTGATCCT; result = 106 a.u.
